Experimental data gathered from unrelated publications.
Lines come from different studies, so protocols differ.
Organism: Staphylococcus aureus

CCCCCCCC[N+](C)(C)CCCCCCCCCCOc1cc(OCCCCCCCCCC[N+](C)(C)CCCCCCCC)cc(OCCCCCCCCCC[N+](C)(C)CCCCCCCC)c1.[Br-].[Br-].[Br-] has an MIC of 2 µM (CA-MRSA USA300-0114).
For CC[C@H]1OC(=O)[C@H](C)[C@@H](OC(=O)Cc2cccc([N+](=O)[O-])c2)[C@H](C)[C@@H](O[C@@H]2O[C@H](C)C[C@H](N(C)C)[C@H]2O)[C@](C)(OC)C[C@@H](C)C(=O)[C@H](C)[C@@H](O)[C@]1(C)O, the MIC was 0.5 µg/mL (DSM 20231 MSSA).
CCCCCCn1cc[n+](CCCCCCOc2cc(OCCCCCC[n+]3ccn(CCCCCC)c3)cc(OCCCCCC[n+]3ccn(CCCCCC)c3)c2)c1.[Br-].[Br-].[Br-] has an MIC of 0.5 µM (SH1000 MSSA).
CC[C@H]1OC(=O)[C@H](C)[C@@H](OC(=O)Cc2cccc3ccccc23)[C@H](C)[C@@H](O[C@@H]2O[C@H](C)C[C@H](N(C)C)[C@H]2O)[C@](C)(OC)C[C@@H](C)C(=O)[C@H](C)[C@@H](O)[C@]1(C)O has an MIC of 16 µg/mL (microbial growth; BAA976).
With CCCCCCCC[N+](C)(C)CCCCOc1cc(OCCCC[N+](C)(C)CCCCCCCC)cc(OCCCC[N+](C)(C)CCCCCCCC)c1.[Br-].[Br-].[Br-] the MIC was 2 µM (HA-MRSA ATCC 33591).
CN[C@H](CC(C)C)C(=O)N[C@H]1C(=O)N[C@@H](CC(N)=O)C(=O)N[C@H]2C(=O)N[C@H]3C(=O)N[C@H](C(=O)N[C@H](C(=O)NCC(N)=O)c4cc(O)cc(O)c4-c4cc3ccc4O)[C@H](O)c3ccc(c(Cl)c3)Oc3cc2cc(c3O[C@@H]2O[C@H](CO)[C@@H](O)[C@H](O)[C@H]2O[C@H]2C[C@](C)(NCc3ccc(OCc4cn(CC(=O)N[C@H](C(=O)N[C@@H](CCN)C(=O)N[C@H]5CCNC(=O)[C@H]([C@@H](C)O)NC(=O)[C@H](CCN)NC(=O)[C@H](CCN)NC(=O)[C@H](CC(C)C)NC(=O)[C@@H](CC(C)C)NC(=O)[C@H](CCN)NC5=O)[C@@H](C)O)nn4)c(OC)c3)[C@H](O)[C@H](C)O2)Oc2ccc(cc2Cl)[C@H]1O has an MIC of 0.25 µg/mL (broth microdilution; MSSA ATCC 29213, cation-adjusted Mueller-Hinton broth; 20 to 24 h, 37 °C, 0.002% polysorbate 80).
COc1ccc(NC(=O)Nc2ccc(Cl)c(C(F)(F)F)c2)cc1OC has an MIC of 30 µM (microbial growth; NCTC8325).
The MIC of CC[C@H]1OC(=O)[C@H](C)[C@@H](OC(=O)Cc2c(F)cc([N+](=O)[O-])cc2F)[C@H](C)[C@@H](O[C@@H]2O[C@H](C)C[C@H](N(C)C)[C@H]2O)[C@](C)(OC)C[C@@H](C)C(=O)[C@H](C)[C@@H](O)[C@]1(C)O is reported as 0.1 µg/mL (DSM 20231 MSSA).
For CN[C@H](CC(C)C)C(=O)N[C@H]1C(=O)N[C@@H](CC(N)=O)C(=O)N[C@H]2C(=O)N[C@H]3C(=O)N[C@H](C(=O)N[C@H](C(=O)O)c4cc(O)cc(O)c4-c4cc3ccc4O)[C@H](O)c3ccc(c(Cl)c3)Oc3cc2cc(c3O[C@@H]2O[C@H](CO)[C@@H](O)[C@H](O)[C@H]2O[C@H]2C[C@](C)(N)[C@H](O)[C@H](C)O2)Oc2ccc(cc2Cl)[C@H]1O, the MIC was under 1 µM (microbial growth, broth dilution; 43300).
The MIC of CC[C@H]1OC(=O)[C@H](C)[C@@H](OC(=O)Cc2c(F)cccc2F)[C@H](C)[C@@H](O[C@@H]2O[C@H](C)C[C@H](N(C)C)[C@H]2O)[C@](C)(OC)C[C@@H](C)C(=O)[C@H](C)[C@@H](O)[C@]1(C)O is reported as 2 µg/mL (BAA-977).
For CC(C)C/C=C/C=C\C(=O)N[C@@H](CC(N)=O)C(=O)N[C@@H]1C(=O)N[C@H](c2ccc(O)cc2)C(=O)N[C@H](CCCN)C(=O)N[C@H]([C@@H](C)O)C(=O)N[C@@H](c2ccc(O)cc2)C(=O)N[C@H](c2ccc(O)cc2)C(=O)N[C@@H]([C@H](C)O)C(=O)N[C@@H](Cc2ccccc2)C(=O)N[C@H](CCCN)C(=O)N[C@@H](c2ccc(O[C@H]3O[C@H](CO)[C@@H](O)[C@H](O)[C@@H]3O[C@H]3O[C@H](CO)[C@@H](O)[C@H](O)[C@@H]3O)cc2)C(=O)N[C@H]([C@@H](C)O)C(=O)N[C@@H](c2ccc(O)cc2)C(=O)NCC(=O)N[C@@H](CC(C)C)C(=O)N[C@H](C)C(=O)N[C@@H](c2ccc(O)c(Cl)c2)C(=O)O[C@@H]1C(N)=O, the MIC was 2.6 µg/mL (broth microdilution; MSSA ATCC 29213).
For C=C1CN(C(=N)N)CC2Nc3c(F)cc(Br)cc3C12CCNS(=O)(=O)c1ccc(Cl)cc1.O=C(O)C(F)(F)F (centres unmarked), the MIC was 2 µg/mL (NRS-384, community-acquired MRSA).
COc1c(C)c(OCc2ccccc2)c(C)c(OCc2ccccc2)c1C(=O)/C=C/c1ccccc1 gave an MIC of 5000 µg/mL (microbial growth, broth dilution; ATCC25923).
C#CCOc1ccc(CN[C@@]2(C)C[C@H](O[C@H]3[C@H](Oc4c5cc6cc4Oc4ccc(cc4Cl)[C@@H](O)[C@@H](NC(=O)[C@@H](CC(C)C)NC)C(=O)N[C@@H](CC(N)=O)C(=O)N[C@H]6C(=O)N[C@H]4C(=O)N[C@H](C(=O)N[C@H](C(=O)O)c6cc(O)cc(O)c6-c6cc4ccc6O)[C@H](O)c4ccc(c(Cl)c4)O5)O[C@H](CO)[C@@H](O)[C@@H]3O)O[C@@H](C)[C@H]2O)cc1OC gave an MIC of 2 µg/mL (broth microdilution; MRSA USA300, cation-adjusted Mueller-Hinton broth; 20 to 24 h, 37 °C, 0.002% polysorbate 80).
For CCC(CC)c1cc(CCN2CCCN(S(=O)(=O)c3cccc4ccccc34)CC2)nc(-c2ccccn2)n1, the MIC was over 16 µg/mL (microbial growth, broth dilution; ATCC29213).
The MIC of CCCCCCCC[C@H](NC(=O)[C@@H]1CSC([C@@H](N)[C@@H](C)CC)=N1)C(=O)N[C@H](CCC(=O)O)C(=O)N[C@H](C(=O)N[C@H]1CCCCNC(=O)[C@H](CC(N)=O)NC(=O)[C@@H](CC(=O)O)NC(=O)[C@H](Cc2c[nH]cn2)NC(=O)[C@@H](Cc2ccccc2)NC(=O)[C@H]([C@@H](C)CC)NC(=O)[C@@H](CCCN)NC1=O)[C@@H](C)CC is reported as 16 µg/mL (ATCC 29213; with: EDTA 0.3 mM).
CC[C@H]1OC(=O)[C@H](C)[C@@H](O[C@H]2C[C@@](C)(OC)[C@@H](O)[C@H](C)O2)[C@H](C)[C@@H](O[C@@H]2O[C@H](C)C[C@H](N(C)C)[C@H]2O)[C@](C)(OC)C[C@@H](C)C(=O)[C@H](C)[C@@H](O)[C@]1(C)O gave an MIC of over 256 µg/mL (ATCC 43300 MRSA).
With COc1c(NC(=O)c2ccc(NC(=O)[C@H](Cc3c[nH]nn3)NC(=O)c3ccc(NC(=O)/C(C)=C/c4ccc(O)cc4)cc3)cc2)ccc(C(=O)Nc2ccc(C(=O)O)cc2)c1O the MIC was 2 µg/mL (broth microdilution; ciprofloxacin-resistant).
N=C(N)NCCC[C@@H]1NC(=O)[C@H](CCCNC(=N)N)NC(=O)[C@@H](C(c2ccccc2)c2ccccc2)NC(=O)[C@H](Cc2c[nH]c3ccccc23)NC(=O)[C@@H](C(c2ccccc2)c2ccccc2)NC(=O)[C@@H](CCCNC(=N)N)NC(=O)[C@@H](CCCNC(=N)N)NC1=O gave an MIC of 4 µg/mL (ATCC 29213, MSSA).
With CCCCCCCCCCn1cc[n+](CCCCOc2cc(OCCCC[n+]3ccn(CCCCCCCCCC)c3)cc(OCCCC[n+]3ccn(CCCCCCCCCC)c3)c2)c1.[Br-].[Br-].[Br-] the MIC was 1 µM (HA-MRSA ATCC 33591).
With COc1cc(C(=O)Nc2ccc(C(=O)O)cc2)ccc1NC(=O)c1ccc(NC(=O)[C@H](Cc2c[nH]nn2)NC(=O)c2ccc(NC(=O)/C(C)=C/c3ccc(O)cc3)cc2)cc1 the MIC was 32 µg/mL (broth microdilution; ciprofloxacin-sensitive).
For CCCCCCCCCC[N+](C)(C)CCCCCCCCCCOc1cc(OCCCCCCCCCC[N+](C)(C)CCCCCCCCCC)cc(OCCCCCCCCCC[N+](C)(C)CCCCCCCCCC)c1.[Br-].[Br-].[Br-], the MIC was 8 µM (SH1000 MSSA).
For COc1cc(C(=O)O)ccc1NC(=O)c1ccc(NC(=O)c2ccc(NC(=O)[C@H](Cc3c[nH]nn3)NC(=O)c3ccc(NC(=O)/C(C)=C/c4ccc(O)cc4)cc3)cc2)c(OC)c1, the MIC was 8 µg/mL (broth microdilution; ciprofloxacin-resistant).

Excerpt of the above:
The MIC of CCCCCCCC[C@H](NC(=O)[C@@H]1CSC([C@@H](N)[C@@H](C)CC)=N1)C(=O)N[C@H](CCC(=O)O)C(=O)N[C@H](C(=O)N[C@H]1CCCCNC(=O)[C@H](CC(N)=O)NC(=O)[C@@H](CC(=O)O)NC(=O)[C@H](Cc2c[nH]cn2)NC(=O)[C@@H](Cc2ccccc2)NC(=O)[C@H]([C@@H](C)CC)NC(=O)[C@@H](CCCN)NC1=O)[C@@H](C)CC is reported as 16 µg/mL (ATCC 29213; with: EDTA 0.3 mM).
CC[C@H]1OC(=O)[C@H](C)[C@@H](O[C@H]2C[C@@](C)(OC)[C@@H](O)[C@H](C)O2)[C@H](C)[C@@H](O[C@@H]2O[C@H](C)C[C@H](N(C)C)[C@H]2O)[C@](C)(OC)C[C@@H](C)C(=O)[C@H](C)[C@@H](O)[C@]1(C)O gave an MIC of over 256 µg/mL (ATCC 43300 MRSA).
With COc1c(NC(=O)c2ccc(NC(=O)[C@H](Cc3c[nH]nn3)NC(=O)c3ccc(NC(=O)/C(C)=C/c4ccc(O)cc4)cc3)cc2)ccc(C(=O)Nc2ccc(C(=O)O)cc2)c1O the MIC was 2 µg/mL (broth microdilution; ciprofloxacin-resistant).
